Experimental data of several laboratories.
Compare with care: the assays were run in different laboratories. Several values in a cell are separate wells, animals, samples, runs or records. ± gives the spread as reported.
Sequence of UniProt Q9UK32 (whole entry, looked up): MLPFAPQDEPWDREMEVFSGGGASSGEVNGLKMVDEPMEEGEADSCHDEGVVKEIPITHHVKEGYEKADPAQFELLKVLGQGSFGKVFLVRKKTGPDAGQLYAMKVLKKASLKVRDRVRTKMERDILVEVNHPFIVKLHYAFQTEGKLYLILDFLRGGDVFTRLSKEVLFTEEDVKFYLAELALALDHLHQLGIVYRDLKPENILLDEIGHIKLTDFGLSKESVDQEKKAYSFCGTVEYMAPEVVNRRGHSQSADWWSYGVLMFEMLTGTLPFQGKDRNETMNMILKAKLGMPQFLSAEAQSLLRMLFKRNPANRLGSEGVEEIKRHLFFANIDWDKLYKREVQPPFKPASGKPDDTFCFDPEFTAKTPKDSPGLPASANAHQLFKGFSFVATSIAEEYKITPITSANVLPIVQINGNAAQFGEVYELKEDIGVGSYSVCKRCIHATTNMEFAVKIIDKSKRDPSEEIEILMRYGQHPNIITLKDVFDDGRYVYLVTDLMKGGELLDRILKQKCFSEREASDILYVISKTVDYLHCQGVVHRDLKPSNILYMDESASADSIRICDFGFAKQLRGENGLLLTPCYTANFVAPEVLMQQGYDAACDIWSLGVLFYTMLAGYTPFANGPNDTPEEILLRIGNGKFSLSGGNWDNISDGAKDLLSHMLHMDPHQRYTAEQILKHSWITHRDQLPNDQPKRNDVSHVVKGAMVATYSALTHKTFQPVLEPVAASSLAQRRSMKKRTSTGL

| SMILES | tested on | assay | system | conditions | scale | endpoint | result |
| --- | --- | --- | --- | --- | --- | --- | --- |
| COc1ccccc1-c1ccncc1C(=O)Nc1nnc(OCc2ccc(Cl)cc2)s1 | MDA-MB-436 | – | – | 0.1875 µM | – | colony count | 16.5 and 17 and 17.5 |
| C=CC(=O)N1[C@@H](c2ccc3c(c2)OCO3)c2[nH]c3ccccc3c2C[C@H]1C(=O)N1CCN(C)CC1 | human cyclin E1 N112C-3xFLAG:CDK2 | co-IP with TMT proteomics, refers to: HNRNPA2B1 | – | concentration not given, P22626 | reference: wild type DMSO | relative co-enrichment | 150% |
| CCN(CC)CC(=O)Nc1cccc(-n2cc(-c3ccc4ccc(-c5cn(-c6cccc(NC(=O)CN(CC)CC)c6)nn5)cc4c3)nn2)c1 | RCC4 | PCR angiogenesis array, refers to: FGF1 | – | 5 x IC50, 2 h, normoxia | reference: untreated | fold regulation | 1.03 |
| c1ccc(-c2n[nH]cc2-c2ccnc3ccccc23)nc1 | CDC15 (Candida albicans) | kinase binding, MIB/MS competition | Candida albicans lysate | 1 µM | reference: DMSO | log2 fold change | -0.02 |
| C=C(NC(=O)c1csc(-c2nc3c(cc2O)-c2nc(cs2)C(=O)NC(C(C)O)C(=O)NC(=C(C)OC)c2nc(cs2)C(=O)NC2c4nc(cs4)C(=O)NC(COC(=O)c4c5c6c(cccc6n4O)COC(=O)C(OC4CC(C)(O)C(N(C)C)C(C)O4)C2OC5)c2nc-3cs2)n1)C(N)=O (stereo not shown) | – | – | cynomolgus monkey, plasma | intravenous, 9 mg/kg, single dose, infusion | – | half-life | 5.92 h |
| Cc1ncsc1-c1ccc(C(C)NC(=O)C2CC(O)CN2C(=O)C(NC(=O)CCCCCCCCCCN2CCCC(Nc3ncc(Cl)c(Nc4ccccc4S(=O)(=O)C(C)C)n3)C2)C(C)(C)C)cc1 (stereo not shown) | 22Rv1 | RNA-seq, refers to: ZNF440 mRNA | – | concentration not given | reference: DMSO | log2 fold change | -1.59 |
| C=CC(=O)Nc1cccc(Cn2ncc3cnc(Nc4cnn(CCOC)c4)nc32)c1 | ERK5 human | binding, KINOMEscan | – | 100 nM | lower = stronger binding | percent of control | 100% |
| COC1CN([C@H]2CC[C@H]([C@@]3(C)Oc4c(Cl)cc(C(=O)NCc5c(SC)cc(C)[nH]c5=O)c(C)c4O3)CC2)C1 | – | RNA-seq, refers to: CFAP54 | human, whole blood | dose not given, 24 h | reference: pretreatment baseline | log2 fold change | 1.33 |
| CC(C)C[C@H](NC(=O)[C@@H](CCCCNC(=O)[C@@H](Cc1ccccc1)NC(=O)CCCCCNC(=O)CN1CCN(CC(=O)O)CCN(CC(=O)O)CCN(CC(=O)O)CC1)NC(=O)[C@H](Cc1ccc(O)cc1)NC(=O)[C@H](CO)NC(=O)[C@H](Cc1c[nH]c2ccccc12)NC(=O)[C@H](Cc1c[nH]cn1)NC(=O)[C@@H]1CCC(=O)N1)C(=O)N[C@@H](CCCNC(=N)N)C(=O)N1CCC[C@H]1C(=O)NCC(N)=O [indium-111 labelled] | – | – | athymic nude mouse, female, intestines | intravenous, 0.037 MBq, 4 h | – | tissue uptake | 4.59 ± 2.17 %ID |
| CNS(=O)(=O)Nc1nccc(Cc2c(C)c3ccc(Oc4ncccc4F)cc3oc2=O)c1F | NU-DUL-1 | cell viability | – | 7 days | – | IC50 | 1.03 nM |
| Nc1ncc(-c2cc(-c3cnn(CC(F)(F)F)c3)ncc2F)nc1C(=O)NC1CNCC(F)C1 (stereo not shown) | NEK1 | KINOMEscan | – | 1 µM | reference: DMSO control | remaining binding | 82% |
| C=C1CC[C@H](OCCCNC(=O)CCOCCOCCOCCOCCOCCOCCOCCOCCOCCOCCOCCOCCOCCOCCOCCOCCOCCOCCOCCOCCOCCOCCOCCOCCOCCOCCOCCOCCOCCOCCOCCOCCOCCOCCOCCOCCNC(=O)CCN2C(=O)CC(SC[C@H](NC(=O)[C@H](Cc3ccccc3)NC(=O)[C@H](CC(N)=O)NC(=O)[C@H](Cc3c[nH]cn3)NC(=O)[C@@H](NC(=O)[C@H](CC(=O)O)NC(=O)[C@H](CCC(N)=O)NC(=O)[C@H](CC(C)C)NC(=O)[C@H](CCCCN)NC(=O)[C@H](CCCCN)NC(=O)[C@H](CCCNC(=N)N)NC(=O)[C@H](CC(C)C)NC(=O)[C@H](Cc3c[nH]c4ccccc34)NC(=O)[C@H](CCC(=O)O)NC(=O)[C@@H](NC(=O)[C@H](CCCNC(=N)N)NC(=O)[C@H](CCC(=O)O)NC(=O)[C@H](CCSC)NC(=O)[C@H](CO)NC(=O)[C@H](CC(N)=O)NC(=O)[C@H](CC(C)C)NC(=O)[C@H](Cc3c[nH]cn3)NC(=O)[C@H](CCCCN)NC(=O)CNC(=O)[C@H](CC(C)C)NC(=O)[C@H](CC(N)=O)NC(=O)[C@H](Cc3c[nH]cn3)NC(=O)[C@H](CCSC)NC(=O)[C@H](CC(C)C)NC(=O)[C@H](CCC(N)=O)NC(=O)[C@@H](NC(=O)[C@H](CCC(=O)O)NC(=O)[C@H](CO)NC(=O)[C@@H](NC(=O)[C@@H](N)CO)C(C)C)[C@@H](C)CC)C(C)C)C(C)C)C(=O)O)C2=O)C/C1=C/C=C1\CCC[C@]2(C)[C@@H]([C@H](C)CCCC(C)(C)O)CC[C@@H]12 (stereo partly shown) | – | – | male cynomolgus monkey, plasma | subcutaneous, 0.07 mg/kg, single dose | – | half-life | 27.7 h |
| Cc1nn(-c2cccc(N)c2)c(=O)c2cnc(Nc3ccc(N4CCNCC4)cc3)nc12 | RPS6KA6 (Homo sapiens, UniProt Q9UK32) | enzyme activity, inhibitor | – | – | – | IC50 | 1080 nM |
